Assay results of several laboratories.
Lines come from different studies, so protocols differ. Numbers after ± are the reported error.
Chain of UniProt P45984 (whole entry, looked up): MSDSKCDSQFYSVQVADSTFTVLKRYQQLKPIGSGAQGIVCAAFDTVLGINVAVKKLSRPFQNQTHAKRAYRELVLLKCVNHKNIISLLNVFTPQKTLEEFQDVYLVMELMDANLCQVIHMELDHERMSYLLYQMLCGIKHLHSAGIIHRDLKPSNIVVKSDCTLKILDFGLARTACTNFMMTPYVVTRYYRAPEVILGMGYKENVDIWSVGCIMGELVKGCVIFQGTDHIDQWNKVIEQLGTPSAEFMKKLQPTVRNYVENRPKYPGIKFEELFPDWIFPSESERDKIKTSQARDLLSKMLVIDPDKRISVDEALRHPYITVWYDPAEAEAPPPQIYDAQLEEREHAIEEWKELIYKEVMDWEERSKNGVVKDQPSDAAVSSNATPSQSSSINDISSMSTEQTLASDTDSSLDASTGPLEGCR
Chain of UniProt Q8TDX7 (whole entry, looked up): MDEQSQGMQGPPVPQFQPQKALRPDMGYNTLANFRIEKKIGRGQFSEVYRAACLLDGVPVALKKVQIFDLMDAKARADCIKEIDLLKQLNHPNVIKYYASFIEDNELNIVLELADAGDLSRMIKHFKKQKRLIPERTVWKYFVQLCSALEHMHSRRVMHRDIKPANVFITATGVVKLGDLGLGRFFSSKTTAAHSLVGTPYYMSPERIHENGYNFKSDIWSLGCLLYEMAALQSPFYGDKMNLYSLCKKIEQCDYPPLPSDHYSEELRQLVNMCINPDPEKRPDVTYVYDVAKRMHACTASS
Chain of UniProt Q8N568 (whole entry, looked up): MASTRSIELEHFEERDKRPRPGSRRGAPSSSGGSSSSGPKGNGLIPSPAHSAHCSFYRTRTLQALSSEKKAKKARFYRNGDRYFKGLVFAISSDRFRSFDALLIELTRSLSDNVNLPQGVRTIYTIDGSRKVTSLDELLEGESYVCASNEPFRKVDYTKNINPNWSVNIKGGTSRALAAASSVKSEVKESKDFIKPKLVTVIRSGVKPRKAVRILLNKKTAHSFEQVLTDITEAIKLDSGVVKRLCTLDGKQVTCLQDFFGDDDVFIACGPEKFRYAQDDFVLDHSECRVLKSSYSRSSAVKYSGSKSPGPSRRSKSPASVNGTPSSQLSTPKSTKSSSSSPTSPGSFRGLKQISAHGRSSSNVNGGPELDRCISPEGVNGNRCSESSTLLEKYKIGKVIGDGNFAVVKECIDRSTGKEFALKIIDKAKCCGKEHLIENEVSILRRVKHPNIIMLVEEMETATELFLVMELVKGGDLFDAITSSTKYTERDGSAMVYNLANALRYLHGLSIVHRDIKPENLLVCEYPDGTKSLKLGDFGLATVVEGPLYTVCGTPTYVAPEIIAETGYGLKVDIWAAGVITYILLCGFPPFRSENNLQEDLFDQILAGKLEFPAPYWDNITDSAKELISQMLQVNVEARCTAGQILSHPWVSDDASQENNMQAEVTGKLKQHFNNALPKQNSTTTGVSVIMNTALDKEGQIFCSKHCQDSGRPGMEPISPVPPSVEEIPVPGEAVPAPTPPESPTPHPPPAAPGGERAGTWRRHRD
Chain of UniProt Q9Y572 (whole entry, looked up): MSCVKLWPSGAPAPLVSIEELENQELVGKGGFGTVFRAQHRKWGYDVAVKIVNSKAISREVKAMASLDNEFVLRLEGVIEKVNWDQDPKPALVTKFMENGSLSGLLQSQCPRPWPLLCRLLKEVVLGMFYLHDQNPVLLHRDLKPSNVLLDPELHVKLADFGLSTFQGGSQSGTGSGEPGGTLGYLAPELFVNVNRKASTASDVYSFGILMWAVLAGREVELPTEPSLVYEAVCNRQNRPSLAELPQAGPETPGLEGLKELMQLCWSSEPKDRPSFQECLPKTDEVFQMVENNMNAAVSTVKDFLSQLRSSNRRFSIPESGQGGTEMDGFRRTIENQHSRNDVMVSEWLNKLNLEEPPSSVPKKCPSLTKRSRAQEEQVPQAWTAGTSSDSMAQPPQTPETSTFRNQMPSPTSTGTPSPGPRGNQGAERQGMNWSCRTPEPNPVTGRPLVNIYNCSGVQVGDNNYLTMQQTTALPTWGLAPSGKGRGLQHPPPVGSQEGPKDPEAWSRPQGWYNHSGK
Chain of UniProt Q96PF2 (whole entry, looked up): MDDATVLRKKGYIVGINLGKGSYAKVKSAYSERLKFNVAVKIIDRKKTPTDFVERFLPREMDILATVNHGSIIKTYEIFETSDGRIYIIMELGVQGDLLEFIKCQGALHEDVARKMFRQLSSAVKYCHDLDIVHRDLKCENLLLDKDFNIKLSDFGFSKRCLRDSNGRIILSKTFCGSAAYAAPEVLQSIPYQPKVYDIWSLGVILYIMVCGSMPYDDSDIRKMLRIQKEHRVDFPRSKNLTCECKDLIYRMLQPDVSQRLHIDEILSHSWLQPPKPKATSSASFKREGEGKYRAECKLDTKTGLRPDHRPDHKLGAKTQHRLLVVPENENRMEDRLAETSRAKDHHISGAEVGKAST
Chain of UniProt P21802 (whole entry, looked up): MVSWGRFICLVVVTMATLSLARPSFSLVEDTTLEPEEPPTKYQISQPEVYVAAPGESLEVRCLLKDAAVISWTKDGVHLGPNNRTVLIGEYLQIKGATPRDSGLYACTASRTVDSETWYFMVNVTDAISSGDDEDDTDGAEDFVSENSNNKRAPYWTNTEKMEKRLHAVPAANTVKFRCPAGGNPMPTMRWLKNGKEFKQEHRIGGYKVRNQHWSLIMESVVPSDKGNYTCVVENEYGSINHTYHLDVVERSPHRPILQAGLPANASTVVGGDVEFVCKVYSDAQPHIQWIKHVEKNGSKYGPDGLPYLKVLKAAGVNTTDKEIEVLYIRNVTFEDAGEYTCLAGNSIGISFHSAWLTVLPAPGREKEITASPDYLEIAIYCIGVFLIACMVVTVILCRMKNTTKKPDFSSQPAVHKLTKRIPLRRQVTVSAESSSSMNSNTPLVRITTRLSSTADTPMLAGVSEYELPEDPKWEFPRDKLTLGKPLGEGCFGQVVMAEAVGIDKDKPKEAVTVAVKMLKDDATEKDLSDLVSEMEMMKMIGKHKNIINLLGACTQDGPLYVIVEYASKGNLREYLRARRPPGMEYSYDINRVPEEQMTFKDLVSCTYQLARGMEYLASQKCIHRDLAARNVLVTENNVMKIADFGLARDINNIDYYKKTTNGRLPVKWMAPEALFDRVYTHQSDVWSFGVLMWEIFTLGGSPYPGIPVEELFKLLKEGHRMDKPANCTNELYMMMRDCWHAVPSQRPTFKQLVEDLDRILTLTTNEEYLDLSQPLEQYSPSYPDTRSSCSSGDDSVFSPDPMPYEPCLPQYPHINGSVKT
Chain of UniProt Q5VT25 (whole entry, looked up): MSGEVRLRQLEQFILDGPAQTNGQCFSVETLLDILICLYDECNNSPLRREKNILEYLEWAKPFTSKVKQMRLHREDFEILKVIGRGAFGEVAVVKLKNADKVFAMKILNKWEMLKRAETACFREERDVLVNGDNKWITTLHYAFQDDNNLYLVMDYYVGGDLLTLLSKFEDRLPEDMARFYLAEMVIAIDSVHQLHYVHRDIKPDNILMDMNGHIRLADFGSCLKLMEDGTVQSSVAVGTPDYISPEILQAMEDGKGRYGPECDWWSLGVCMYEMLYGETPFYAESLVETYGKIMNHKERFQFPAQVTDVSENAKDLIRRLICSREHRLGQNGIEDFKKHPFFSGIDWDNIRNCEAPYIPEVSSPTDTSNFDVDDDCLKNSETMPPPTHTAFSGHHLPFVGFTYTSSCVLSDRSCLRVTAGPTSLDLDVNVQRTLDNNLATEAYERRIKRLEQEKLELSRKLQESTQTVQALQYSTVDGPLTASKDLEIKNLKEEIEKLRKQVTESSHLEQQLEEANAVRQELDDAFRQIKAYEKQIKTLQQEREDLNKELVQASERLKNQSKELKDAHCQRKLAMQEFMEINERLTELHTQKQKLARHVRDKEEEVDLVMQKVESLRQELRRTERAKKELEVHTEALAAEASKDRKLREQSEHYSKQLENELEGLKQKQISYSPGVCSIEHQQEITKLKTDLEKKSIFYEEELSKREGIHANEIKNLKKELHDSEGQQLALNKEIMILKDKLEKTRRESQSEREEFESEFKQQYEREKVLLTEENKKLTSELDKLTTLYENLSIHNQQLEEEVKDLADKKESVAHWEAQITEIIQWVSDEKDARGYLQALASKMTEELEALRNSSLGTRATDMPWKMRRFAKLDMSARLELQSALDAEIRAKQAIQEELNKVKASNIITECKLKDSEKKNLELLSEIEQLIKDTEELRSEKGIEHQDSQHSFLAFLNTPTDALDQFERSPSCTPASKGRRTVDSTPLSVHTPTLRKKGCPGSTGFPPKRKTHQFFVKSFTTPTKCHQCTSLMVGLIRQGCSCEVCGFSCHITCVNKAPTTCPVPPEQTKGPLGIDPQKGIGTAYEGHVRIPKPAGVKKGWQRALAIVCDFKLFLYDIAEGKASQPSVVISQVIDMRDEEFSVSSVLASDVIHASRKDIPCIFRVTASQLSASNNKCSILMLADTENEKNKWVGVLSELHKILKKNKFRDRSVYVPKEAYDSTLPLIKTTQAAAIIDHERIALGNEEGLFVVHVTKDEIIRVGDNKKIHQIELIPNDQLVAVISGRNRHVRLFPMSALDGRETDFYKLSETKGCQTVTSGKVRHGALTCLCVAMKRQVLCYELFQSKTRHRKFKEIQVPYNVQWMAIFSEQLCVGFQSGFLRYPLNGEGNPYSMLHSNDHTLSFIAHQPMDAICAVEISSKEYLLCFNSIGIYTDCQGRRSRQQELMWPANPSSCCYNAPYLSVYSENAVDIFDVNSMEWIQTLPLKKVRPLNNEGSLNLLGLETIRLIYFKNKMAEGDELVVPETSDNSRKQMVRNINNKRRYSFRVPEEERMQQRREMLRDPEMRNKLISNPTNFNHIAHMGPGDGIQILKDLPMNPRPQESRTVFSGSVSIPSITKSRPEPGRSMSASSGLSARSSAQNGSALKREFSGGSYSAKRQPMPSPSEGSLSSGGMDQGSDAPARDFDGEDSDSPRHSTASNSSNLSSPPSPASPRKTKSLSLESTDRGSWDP

Structure (SMILES)	target	assay	setting	how to read	remaining activity
COc1ccc(F)cc1C(=O)NCc1ccc(-c2nn([C@@H](C)C(F)(F)F)c(N)c2C(N)=O)cc1	Receptor-interacting serine/threonine-protein kinase 3 (RIPK3, Homo sapiens, UniProt Q9Y572)	kinase activity, inhibitor, HotSpot radiometric	100 nM, with: ATP 10 µM		122.6 ± 1.1%
CNC(=O)c1cc(Oc2ccc(NC(=O)Nc3ccc(Cl)c(C(F)(F)F)c3)cc2)ccn1	Cyclin-dependent kinase 2, with cyclin A2 (CDK2, Homo sapiens, UniProt P24941)	kinase activity, inhibitor, ADP-Glo kinase	1 nM		80.4%
COc1cc(-c2cncc3c2CN(C)Cc2cc(N4CCNCC4)ccc2-3)cc(OC)c1OC	Serine/threonine-protein kinase DCLK2 (DCLK2, Homo sapiens, UniProt Q8N568)	kinase activity	1 µM, human enzyme, with: ATP 10 µM	relative to: DMSO control	104%
O=C(O)c1ccc(Nc2ncc3c(n2)-c2ccc(Cl)cc2C(c2c(F)cccc2F)=NC3)cc1	MAPK2(h)	kinase activity	1 µM		96%
C=CC(=O)N1CCC[C@@H](n2nc(-c3ccc(Oc4ccccc4)cc3)c3c(N)ncnc32)C1	Testis-specific serine/threonine-protein kinase 2 (TSSK2, Homo sapiens, UniProt Q96PF2)		1 µM		32%
COc1cc(F)ccc1-c1ncnc(Nc2cccc(C[S@](C)(=N)=O)c2)n1	Serine/threonine-protein kinase Nek7 (NEK7, Homo sapiens, UniProt Q8TDX7)	kinase activity	10 µM, with: 10 µM ATP		100%
Cc1cc(NC(=O)c2cccc(NC(=O)/C=C/CN(C)C)c2)ccc1Nc1nccc(-c2cccnc2)n1	Mitogen-activated protein kinase 9 (MAPK9, Homo sapiens, UniProt P45984)	enzyme activity, inhibitor	2.788e-05 µM, unit not given	relative to: vehicle	0.954
COc1cc(N2CCN(C)CC2)ccc1Nc1nc(N)n(C(=S)NCc2c(Cl)cccc2Cl)n1	Serine/threonine-protein kinase MRCK alpha (CDC42BPA, Homo sapiens, UniProt Q5VT25)	enzyme activity	10 µM	relative to: control	18%
COc1cc(Nc2ncc3c(n2)-c2ccc(Cl)cc2C(c2c(F)cccc2OC)=NC3)ccc1C(=O)O	PRKCH	kinase activity	1 µM		108%
C=CC(=O)N1CCC[C@@H](n2nc(-c3ccc(Oc4ccccc4)cc3)c3c(N)ncnc32)C1	Fibroblast growth factor receptor 2 (FGFR2, Homo sapiens, UniProt P21802)	kinase activity, inhibitor, HotSpot radiometric	100 nM, with: ATP 10 µM		82.6 ± 0.7%
